Measured values from different studies.
Each numbered part is a random draw from the data of one study; scales do not carry over between parts.

Block 1 — cell line: yeast with cyclin B3-Cln2 chimera; observed: cell growth; mode: binder; technique: competitive growth deep sequencing; form: peptide; concentration: concentration not given; setting: peptide tiling library; direction: direction not given
`SNFFDVIKQLFSDEKN` — result for “growth enrichment score”: 1.51.
`DWDTVERQEEEAPSWD`: “growth enrichment score” 0.456.
`TQERKQIHCLSEDELS`: “growth enrichment score” 0.292.
For `GTPKRCLDLSNLSSGE`, “growth enrichment score” read -0.324.
For `PKNAKRNLSSEFAN`, “growth enrichment score” read 0.403.
`IFNKPECGRVQRAIFQ` — result for “growth enrichment score”: -1.41.
`ASVLSKPIFCFVKD` — result for “growth enrichment score”: 0.547.
`PKRAKRKLYTSEISSP` — result for “growth enrichment score”: -0.968.

Block 2 — technique: RNA Bind-n-Seq; form: RNA; sample: in vitro; concentration: 365 nM; reference: no-protein control; direction: higher = stronger binding
Target: RNA binding protein fox-1 homolog 2, RRM domain, GST-SBP tag (RBFOX2, Homo sapiens, UniProt O43251-10, residues 100-194)
Setting: natural RNA segment, single round, ends assumed
Shared flanks, not repeated: GGGAGUUCUACAGUCCGACGAUC … UGGAAUUCUCGGGUGCCAA
Under “RBNS enrichment (R)”, `CGAUAUGUCUGUCCAUCUUUCUCCUUUCUUCCAGCACACACAGCUAAGAGAUAAGAAGGCUGCAAGGAUUGGGGAUAAGGAGUAUAUUUUCAAGCCAAGAACCAGUAGAA` is recorded as 0.488.
`UAUGUAAGCUCACAUGGAAGUUUAAGAAUUUCUGUGUUAAUACUUGGAAUAACCCAGAGAAAAGAAGCCAGAAGCCUAAUUCCAGAGAGGAAGGGAAAGAAGUUCUGUAG` — result for “RBNS enrichment (R)”: 0.731.
`AGCCUGCUUCCAUCCAUGGGUGGGAAGACUUCAGCACAAAGGAAAGACUAAUUCUUGUCAGGCAUUUUUGAAAAGGCUGAUUAUGUGUAUCAAGGUACAGCAUCGUAGGG`: “RBNS enrichment (R)” 0.37.
`CAUCCUGGACCAAACAGAUAGGCCAGAACCAGCCUGCAUCCUGGGGCUGCUAUGUGGUUCAGUUAAUCAGUGUGCCAAGAUUCUAAUAAAGUUGACCUUGGGUUCUGUGA`: “RBNS enrichment (R)” 0.588.
`GGGCUCAGAGAGUCCCAGCCCUAAGGGUGUGAACCUCACCUCCUGGGGCUUCCGAGCUACAGGGCUGGGACCAGGUCAUGCAGCUGAAAGUCUACGUUAAAAAAAAAAAG`: “RBNS enrichment (R)” 0.42.
For `AAACUGAUCUGCUCCCGGGUGCUUUCUUACCACCAUCUCUGGUGACUUAGCCUCAAAUUGGUGUUUUUCUUUCCCAAGAAUUCAUCUUAAGGGUUAGCUUUGAGUAUGUU`, “RBNS enrichment (R)” read 0.395.
`UCGCAGAGGCGGUGGGAAGGCUGUCAGAGCCUGUGUUCUGAUUUUUCAGAAAACAGGUCUCUCCUUUUGUAAAUCUGGAAUGAUGUAAGAAAAUGCUUUUGGUUACUGAU`: “RBNS enrichment (R)” 1.18.
Under “RBNS enrichment (R)”, `CCAUUGAACUUAAUCUGUGUGGCUUCCAGCCCUCCCUUUACCAAAAGGGUCAAUGGACCUUUCUUUGCACUGUGUGACUUAAUCAACUAUAAAAGCUUACAAUUAGUCUU` is recorded as 0.42.

Block 3 — technique: RNA Bind-n-Seq; form: RNA; sample: in vitro; concentration: not given; reference: input RNA pool; direction: higher = stronger binding
Target: RING finger protein unkempt homolog, zinc fingers 1-6, GST-SBP tag (UNK, Homo sapiens, UniProt Q9C0B0, residues 30-357)
Setting: RNA with constant flanks, human-mouse chimeric sites, ends assumed
Shared flanks, not repeated: GGGAGUUCUACAGUCCGACGAUC … CAACAGAGGAUUGAGCAUCA
Construct (chain): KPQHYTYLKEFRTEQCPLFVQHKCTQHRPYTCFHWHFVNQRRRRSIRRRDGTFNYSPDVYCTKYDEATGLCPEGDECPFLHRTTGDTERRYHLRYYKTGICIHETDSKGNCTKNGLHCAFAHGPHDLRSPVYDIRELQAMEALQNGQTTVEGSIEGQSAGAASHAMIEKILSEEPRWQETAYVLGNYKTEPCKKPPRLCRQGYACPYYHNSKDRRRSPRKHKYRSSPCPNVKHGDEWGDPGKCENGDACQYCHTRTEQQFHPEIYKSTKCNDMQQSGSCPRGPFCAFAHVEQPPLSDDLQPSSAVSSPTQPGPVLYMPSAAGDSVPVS
With `UAAAUUAGGGCUGCCGUUUUCUGUUUCGCCCUGAGCUGCGGAAAGCCAGAAGAUUUUAUCUAGCUUAUACAAGGCUGCUGGUGUUCCCUCCCUCCCGCCACGAGGGUGUUUUUGGCUGCA` the bound/input enrichment was 0.532 ratio.
`GGACAUCUUGUCAGGAUUUAUGUUCCUGUGAAACAAGUGAACACUCUGAUACACUUCAUUUAGUUGUACAUCUGUAUGAUAGAGAAAUGUAAAUAUGUUAAUCCAAGCAAUGUGUCACUU` gave a bound/input enrichment of 0.181 ratio.
With `CAGACUGUGUCAUACUUUUUAGACAUUCACAUCAGACUUACAGAGCACCUGGCCACAUUCUAGGUUUGUGUUAUUUCUCAGCUAUGGAUAUGAUCAAAGAGUGAAAAUGCUUAACUAAUG` the bound/input enrichment was 0.51 ratio.
With `AACUUUGUGCAUCGGUUUCCUUUUGUAGCUGUUUCAAUUGGCUUCCUUGUGAAUAAAGAGAUGGAGUUUGGAAUUGUGUACAGCUGUGUGGAAGAUAAGAUGUACACCGGCAGGAAAGGG` the bound/input enrichment was 0.382 ratio.
`UCCUUGGACCCCAGUCAUAUAGGUGACCUGCAAAAAGCAGACACCAGUAGUCAAGGUGCUUUAGUGUUUCUCUCAAAGGACUACGAGAUAGAAAGUCAAAAUCCCCUGGCCUCUCCUACG` gave a bound/input enrichment of 1.27 ratio.
`CGCUUGGAUGAGGCGGGUGUCACAGAUGAAGUGCUGGAUUCUGCCAUGCAAGCCUUCCUUCUGGAGGUCAUUGUUAAACAUGGGGAGCCAGCCCCUUAUUUAUGUAACAAAGAUCCGUUU` has a bound/input enrichment of 0.0811 ratio.
The bound/input enrichment of `UUUCUACUGCAGCAAACGAUGCUAAGAGUGAAGGAUCCUAAGAAGUCCCUGGAUUUUUAUACGAGGGUUCUUGGACUGACCCUCCUGCAGAAGCUUGAUUUUCCCAUUAUGAAGUUCUCG` is reported as 0.188 ratio.
`UUAAACACCAAGCUGAUGGACUCUGAUGGCCUCCAUCUCUCAGGCACGUGUGCCUUCUCUUAGUUAUUGUUUUCGGGAUGUUAUGAAUCUCAGUACUGUGGUUUGAAAGCACCAGCUUUG` has a bound/input enrichment of 4.61 ratio.

Block 4 — technique: RNA Bind-n-Seq; form: RNA; sample: in vitro; concentration: 200 nM; setting: whole 134-nt RNA, ends assumed; with: 150 mM KCl; reference: input library; direction: higher = stronger binding
Target: Fragile X messenger ribonucleoprotein 1, C-terminal low-complexity region (Fmr1, Mus musculus, UniProt P35922)
Shared flanks, not repeated: GGGAGUUCUACAGUCCGACGAUC … UGGAAUUCUCGGGUGUCAAGG
The log2 enrichment of `AAGUCCUGUGCUACACAUCGUAUGUACCGAAUCGGAAAAAAAGGAAAAAGGAAAGGAAAGUAUUAUGUUACGCCGUUCGGAUCUGCACUU` is reported as -1.03.
The log2 enrichment of `UCAAGUCCUGUGCUACACAUCGUAUGUACCGAAUCGGUUUGGAGGUUUUUUUGGAAAGUAUUAUGUUACGCCGUUCGGAUCUGCACUUCC` is reported as -0.392.
`UUGAGAUUGGGUGGAUUCCUAUCAUCUGGAAUUCUGACUCCUCGGGUCUCCUUCUCUAGGUAGCCCAGCAGCAGUGAAGAUGCAGACUGA` has a log2 enrichment of -1.27.
The log2 enrichment of `ACCAUGCUGGUGGGCAUCUUUGGGAAGUGGGGCAAGGGGGGGAUAGGGAGGGGGGUAACACUUUGGGAACAGGUGGUCCCAGGUCGUUUC` is reported as 0.763.
For `UCAAGUCCUGUGCUACACAUCGUAUGUACCGAAUCGGAAGGGGAAGGGAAGGGGAAAGUAUUAUGUUACGCCGUUCGGAUCUGCACUUCC`, the log2 enrichment was 0.96.
For `CACAGACAACACGCACCCACACAGACACAGAGGGAAGGGGUUGGGAUGGGGACAGGGUUCACAGCAGGGCGGGGUAGGACCCCAGCCCCU`, the log2 enrichment was 1.15.
For `CCUCAAGUCCUGUGCUACACAUCGUAUGUACCGAAUCGGGGCGGGCGGCGGGGAAAGUAUUAUGUUACGCCGUUCGGAUCUGCACUUCCA`, the log2 enrichment was 0.96.
The log2 enrichment of `UUGGAUGAAGAUGGCAAAGUCCUGACCCCGGAGGAGCUGCUCUACCGGGUAAGGGGGCCUCCUCUGCCAGACCCUAGAGACCUCUCUGGG` is reported as -0.988.
`CACAGACAACACGCACCCACACAGACACAGAGGGAAGGGGUUGGGAUGGGGACAGGGUGCACAGCAGGGCGGGGUAGGACCCCAAAACCU` gave a log2 enrichment of 1.19.
